# Measurements from different studies.
# Each line is one published result; not all experiments were run side by side. Several values in a cell are separate wells, animals, samples, runs or records. Numbers after ± are the reported error.
SMILES,test,test system,conditions,how to read,endpoint,value
c1ccc(-c2n[nH]cc2-c2ccnc3ccccc23)nc1,"kinase binding, competitor, MIB/MS competition, item: MCK1",Candida albicans cell lysate,1 µM,baseline: DMSO,log2 fold change,1.25
O=C(O)CNC(=O)Cc1ccccc1,,"ventricular cardiomyocytes, C57BL/6 mouse","dose not given, 0.444 s",,sarcomere length,1.72 µm
NC(=O)c1cnc2[nH]ccc2c1N[C@@H]1[C@@H]2CC3C[C@H]1C[C@@](O)(C3)C2,"CD4+ memory T cells, flow cytometry","Japanese humans, peripheral blood",20 mg single dose,baseline: baseline,percent change,0.05%
COc1ccc(F)cc1C(=O)NCc1ccc(-c2nn([C@@H](C)C(F)(F)F)c(N)c2C(N)=O)cc1,,CLL/SLL patients,"dose not given, all efficacy-evaluable patients",,overall response rate,63%
COc1nc(-c2cc(C)c(N[C@@H](C)c3cc(F)cc(F)c3)nn2)ccc1-n1cnc(C)c1,item: Aβ38,"rat Sprague-Dawley male, CSF","oral, 5 mg/kg daily for 9 days, 4 h after dose",baseline: vehicle,change in level,26%
CC(C)[C@H](C(=O)Nc1ccc(C(=O)NO)cc1)c1ccccc1,MRI volumetry,"human, right IAC schwannoma","dose not given, day 2790 post-treatment",,tumour volume,0.0665 cm³
COc1ccc2c(c1)CC[C@@H]1[C@@H]2CC[C@]2(C)[C@@H](NCCCCCCN3C(=O)C=CC3=O)CC[C@@H]12,immunostaining,"humanized mouse, SAH model, middle cerebral artery",dose not given,,p-PKA level,7.46 MFI and 3.69 MFI and 5.26 MFI
CSCCNc1nc(SCCC(F)(F)F)nc2c1ncn2[C@@H]1O[C@H](COP(=O)(O)OP(=O)(O)C(Cl)(Cl)P(=O)(O)O)[C@@H](O)[C@H]1O,"platelet aggregation, light transmission aggregometry","human patients, platelet-rich plasma","dose not given, 2 h, with: TRAP 15 µM",,patients with IPA above 90%,0%
[Cl-].[Cl-].[Pt+2].[Ru+2].c1ccc(-c2nccnc2-c2ccccn2)nc1.c1cnc2c(c1)ccc1cccnc12.c1cnc2c(c1)ccc1cccnc12,"chloride substitution, UV-vis kinetics",aqueous buffer,"concentration not given, pH 7.2, first substitution step, with: L-methionine",,negative activation entropy,163 ± 7 J/(mol·K)
CC(C)C[C@@H](NC(=O)[C@H](C)NC(=O)CNC(=O)[C@@H](NC=O)C(C)C)C(=O)N[C@@H](C)C(=O)N[C@@H](C(=O)N[C@H](C(=O)N[C@@H](C(=O)N[C@@H](Cc1c[nH]c2ccccc12)C(=O)N[C@H](CC(C)C)C(=O)N[C@@H](Cc1ccc2[nH]ccc2c1)C(=O)N[C@H](CC(C)C)C(=O)N[C@@H](Cc1c[nH]c2ccccc12)C(=O)N[C@H](CC(C)C)C(=O)N[C@@H](Cc1c[nH]c2ccccc12)C(=O)NCCO)C(C)C)C(C)C)C(C)C,"H+/Na+ transport, pyranine pH-gradient",EYPC/EYPG LUVs 19:1,,,EC50,4.11 ± 0.75 nM
C[C@H]1C[C@H]2CSC(N)=N[C@@]2(c2nc(NC(=O)c3ccc(OC(F)F)cn3)cs2)CO1,item: Aβ1-40,"healthy adults, plasma","160 mg single dose, 24 h post-dose",baseline: placebo,percent change from baseline,-84%
COc1cccc(CC2NC(=O)CN(Cc3ccccc3)C2=O)c1I (centres unmarked),,rat spinal nerve ligation,"intraperitoneal, 3 mg/kg, with: gabapentin 30 mg/kg i.p.",,evoked audible vocalizations,decreased
O=C1N(Cc2ccccc2Cl)c2ccccc2C12NN=C(c1ccccc1)S2 (centres unmarked),,"SK-BR-3 xenograft, mouse","intravenous, 867 mg/kg total, subcutaneous xenograft",baseline: vehicle,T/C,28%
COc1nnc2ccc(N3CCC(c4ccc(OCCN5CCN(C)C(=O)[C@H]5C)cc4)CC3)nn12,,patients,"5 mg twice daily, monotherapy and combination cohorts",,time HEXIM1 above threshold,4.87 h
CC[C@@H]1[C@H](F)C(=O)N[C@@H]1COc1nccc2cc(C(N)=O)c(OC)cc12,"ATP-site probe binding, ActivX profiling, item: MARK1, MARK2",THP-1 cell lysate,"0.01 mM, Lys1 site",,inhibition,-5.4%
Cn1nnc2c(C(N)=O)ncn2c1=O,,mouse subcutaneous GBM PDX sample E,"subcutaneous, dose not given",,T/C ratio,-7%
C[C@H](Oc1ccc(Br)cc1-c1ccon1)C(=O)O,handgrip dynamometry,healthy human males,"400 mg twice daily, multiple doses, from 90% to 50% of MVC",baseline: placebo,grip release time,-13.3 ms
N#Cc1ccc2c(c1)[C@H]1CCCN(C(=O)c3ccc4[nH]cnc4c3)[C@H]1C2,,"human, Phase II trial","oral, 240 mg once daily, day 28, adjusted mean, SE",,body weight change from baseline,-0.4 kg
COc1cc2cc(-c3ccc(CC(=O)Nc4cc(C(C)(C)C(F)(F)F)no4)cn3)cnc2cc1OC,RECIST v1.1,human RET-mutant medullary thyroid cancer,"75 mg, phase I",,best overall response CR,0%
Cc1cnc(N2CC3(CCOCC3)C2)c(C(=O)Nc2ccc(C(=O)N3CCc4cc(C(=O)Nc5c(C)cccc5F)sc4-c4ccccc43)cc2)c1,item: IP-10,"human RSV infection, nasal wash","dose not given, AUC, ITT-IS population",baseline: placebo,inhibition,48%
O=C1Nc2cc3[nH]nc(-c4ccncc4)c3cc2CN1Cc1ccccc1,RECIST v1.1,"human, relapsed or refractory advanced solid tumours","intravenous, 3.6 mg/kg, pooled schedules",,"progressive disease, best response",67%
CC#Cc1cncc(-c2ccc3c(c2)[C@@]2(N=C(C)C(N)=N2)[C@]2(CC[C@H](OC)CC2)C3)c1,item: Aβ40 and Aβ42,"Dunkin-Hartley guinea pigs, plasma","oral, dose not given",,time to maximum effect,~8 h
C=CCn1c(=O)c2cnc(Nc3ccc(N4CCN(C)CC4)cc3)nc2n1-c1ccc2c(n1)[C@@](O)(CC)CC2,,"NCI-H1755, NOD/SCID mice, xenograft","oral, 80 mg/kg once daily, day 28",baseline: vehicle,tumour growth inhibition,89.6%
OC(CCN1CCCCC1)(c1ccccc1)C1CC2C=CC1C2 (centres unmarked),resting-state EEG,healthy elderly humans,"oral, 2 mg, eyes open, LS mean",baseline: baseline,"EEG beta power, O2 Pz, change in",5.8%
O[C@H]1CCCN[C@@H]1CCCn1cnc2c(Cl)c(Cl)ccc21,"ELISA, item: Pro-C3","healthy human volunteers, serum","intraduodenal, 200 mg twice daily, day 14, multiple ascending dose",,AUC(0-tau),147 ng·h/mL
CS(=O)(=O)CCNCc1ccc(-c2ccc3ncnc(Nc4ccc(OCc5cccc(F)c5)c(Cl)c4)c3c2)o1,tumour growth,"SW48, mouse, subcutaneous SW48 xenograft","oral, 14 days daily, colon cancer",,ED50,106 mg/kg
C[C@@H](O)CCOC(=O)C[C@@H](C)O,item: Glx,"human, plasma","60 min, log2-transformed values",,metabolite level,6.64 ± 0.32 µmol/L
OC[C@H]1O[C@@H](c2ccc(F)c(Cc3cc4ccccc4s3)c2)[C@H](O)[C@@H](O)[C@@H]1O,continuous glucose monitoring,Japanese type 1 diabetes patients,"100 mg/day, day 1",baseline: baseline,time glucose at most 70 mg/dL,-1.04 ± 10.5 % change
N#Cc1ccn2c(-c3ccncc3)c(-c3ccc(F)cc3)nc2c1,"kinase binding, competitor, MIB/MS competition, item: FPK1",Candida albicans cell lysate,1 µM,baseline: DMSO,log2 fold change,-0.0993
COC[C@@H](c1ccc(C(F)(F)F)cc1)N1CCN(C2(C)CCN(C(=O)c3c(C)ncnc3C)CC2)C[C@@H]1C,,"HIV-1 infected patients, plasma","dose not given, week 48, with optimized background regimen",baseline: baseline,change in HIV-1 RNA,-2.1 log10 copies/mL
Cc1noc(C)c1-c1cc(C(O)(c2ccccn2)c2ccccn2)c2nc(C3CC3)[nH]c2c1,item: CCR2 expression,"human, peripheral blood","2 mg, day 8, 1599 study",,maximum inhibition,42.2%
Cc1n[nH]c2ccc(-c3cc(OC[C@@H](N)Cc4ccccc4)cnc3-c3ccoc3)cc12,"kinase binding, competitor, MIB/MS competition, item: SSK2",Candida albicans cell lysate,100 nM,baseline: DMSO,log2 fold change,-0.564
CC1(C)CCC(c2ccc(Cl)cc2)=C(CN2CCN(c3ccc(C(=O)NS(=O)(=O)c4ccc(N[C@H](CCN5CCOCC5)CSc5ccccc5)c(S(=O)(=O)C(F)(F)F)c4)cc3)CC2)C1,cell kill,"primary neoplastic B cells, dog 37","24 h, multicentric marginal zone lymphoma",,EC50,> 50000 nM
[Cl-].[Cl-].[Pt+2].[Ru+2].c1ccc(-c2nc3ccccc3nc2-c2ccccn2)nc1.c1cnc2c(c1)ccc1cccnc12.c1cnc2c(c1)ccc1cccnc12,"chloride substitution, UV-vis kinetics",aqueous buffer,"concentration not given, pH 7.2, first substitution step, with: L-methionine",,negative activation entropy,175 ± 6 J/(mol·K)
COc1cc(F)c([C@@H]2CNC(=O)[C@H]2NC(=O)Nc2ccccc2)c(F)c1,LV haemodynamics,"rat, myocardial ischaemia-reperfusion","1 mg/kg, 1008 h, 6 weeks post-injury",,cardiac output,59 ± 16 mL/min
CC(=O)Oc1cc2c(s1)CCN(C(C(=O)C1CC1)c1ccccc1F)C2 (centres unmarked),"platelet aggregation, light transmittance aggregometry","human, platelet-rich plasma","30 min, IPA above 80 %, with: TRAP 5 µM",baseline: patients,patients with IPA above threshold,0%
C[C@H]1O[C@@H](O[C@H]2CC[C@@]3(C)[C@@H](CC[C@]4(C)[C@@H]3C=C[C@]35OC[C@@]6(CCC(C)(C)C[C@H]63)[C@@H](O)C[C@]54C)[C@]2(C)CO)[C@H](O)[C@@H](O[C@@H]2O[C@H](CO)[C@@H](O)[C@H](O)[C@H]2O)[C@H]1O,"Western blot, item: Mtor","chronic-plus-binge ethanol-fed mice, liver","dose not given, high dose, unit not given",baseline: β-actin,protein level,1.17 and 0.881 and 0.765
COc1ccc(-c2cncc(N[C@@H](C)c3cccc(NC(=O)c4cncc(C)c4)c3)n2)cc1OC,item: rno-miR-144-3p,"rat SU5416/hypoxia model, lung",dose not given,baseline: SU5416/hypoxia vehicle,fold change,0.629
C[C@@H](NC(=O)N1C(=O)[C@H](Cc2ccnc(N)c2)[C@H]1C(=O)O)C1CCCCC1,,human,"iv infusion, 1.5 mg/kg/h, 24 h",,ACT AUEC,16000 h·s
Cn1cc(Nc2nccc(-c3ccc4c(c3)CN(C3COC3)CC[C@H]4NC(=O)c3cn(C(C)(C)C)nn3)n2)cn1,item: Aryl Hydrocarbon Receptor Signaling,"splenic B cells, mouse","in vivo, 30 mg/kg, IgD-activated B cells","baseline: vehicle, positive = activation",pathway activation z-score,-0.243
O=C1CCc2ccc(OCCCCN3CCN(c4cccc(Cl)c4Cl)CC3)cc2N1,,patients CYP2D6 NM,6 months,,stopping or switching,43%
NC/C(=C\F)COc1cccc(Cn2c(=S)[nH]c(=O)c3[nH]cnc32)c1,,"mouse, unilateral ureteral obstruction, left kidney (obstructed)",dose not given,,fibrosis area,7.81% and 5.77% and 8.55% and 3.25% and 7.64% and 5.55%
CN(C(=O)n1cnc(-c2ccc[n+]([O-])c2)c1)C1CCCCC1,item: OEA,"human, plasma","2.5 mg once daily, day 10",,AUC(0-tau),273 ng·h/mL
CO[C@H]1CC[C@H](N2C(=O)CNc3ncc(-c4ccc(C(C)(C)O)nc4)nc32)CC1,flow cytometry,"stimulated B cells, human, blood","60 mg single dose, 24 h, mean",baseline: baseline,pS6RP change from baseline,14.3%
CN(C)C(=O)Oc1cccc([N+](C)(C)C)c1,neuromuscular block reversal,rat,"dose not given, 14 (unit not given), with: cisatracurium",baseline: T1 twitch,train-of-four ratio,95.9
N#CCNC(=O)c1ccc(-c2ccnc(Nc3ccc(N4CCOCC4)cc3)n2)cc1,,patients with myelofibrosis,"24 weeks, phase III trials",,transfusion independence rate,54.4%
O=C(COc1ccc(Cl)cc1)NC12CC(c3nnc([C@H]4C[C@@H](OC(F)(F)F)C4)o3)(C1)C2,,"healthy human, PBMC","oral, 45 mg single dose, day 1, 4 h post-dose, median, with: sodium arsenite ex vivo",baseline: baseline,ATF4 protein change,-38.2%
O=C(O)c1ccc(-n2cc(CNc3cc(Br)cc(C(F)(F)F)c3)c(-c3ccc(F)c(F)c3)n2)cc1,,"Caenorhabditis elegans, S. aureus infected","1 µg/mL, 5 days",,survival,~80%
O=C1O[C@H]([C@@H](O)CO)C(O)=C1O,hydroxyl radical scavenging,,80 µM,,inhibition,36.5%
Cc1cc([C@H]2C[C@H]3[C@@H](CF)SC(N)=N[C@@]3(c3ccc(F)cc3F)CO2)on1,item: Aβx-40,"wild-type mouse, brain","subcutaneous, 100 mg/kg, 7 h",,brain Aβ40 level,1.83 ng/g

# Excerpt of the above:
SMILES,test,test system,conditions,how to read,endpoint,value
C[C@@H](NC(=O)N1C(=O)[C@H](Cc2ccnc(N)c2)[C@H]1C(=O)O)C1CCCCC1,,human,"iv infusion, 1.5 mg/kg/h, 24 h",,ACT AUEC,16000 h·s
Cc1noc(C)c1-c1cc(C(O)(c2ccccn2)c2ccccn2)c2nc(C3CC3)[nH]c2c1,item: CCR2 expression,"human, peripheral blood","2 mg, day 8, 1599 study",,maximum inhibition,42.2%
CS(=O)(=O)CCNCc1ccc(-c2ccc3ncnc(Nc4ccc(OCc5cccc(F)c5)c(Cl)c4)c3c2)o1,tumour growth,"SW48, mouse, subcutaneous SW48 xenograft","oral, 14 days daily, colon cancer",,ED50,106 mg/kg
